Results collected from several papers.
Compare with care: the assays were run in different laboratories. “And” joins repeats or separate records; there may be more than shown.

Compound | target or system | assay | system | conditions | how to read | quantity | result
C[C@]1(CO)Cc2ncn(-c3ccc(C#N)c(Cl)c3)c2C(=O)O1 |  |  | human | oral, 10 mg, fed, single dose, geometric mean |  | t1/2 | 4.6 h
Cc1nnc2n1-c1ccc(Cl)cc1C(c1ccccc1)=NC2 |  |  | human female | dose not given, day 22 | baseline: day 0 | T1/2 change | 1.44%
CC(=O)c1c(C)c2cnc(Nc3ccc(C4CCN(CCS(C)(=O)=O)CC4)cn3)nc2n(C2CCCC2)c1=O |  |  | human, plasma | oral, 75 mg twice daily, day 1, single dose, together with: fulvestrant |  | t1/2 | 6.6 h
CCCCCCCCCCC(=O)O[C@H]1CC[C@H]2[C@@H]3CCC4=CC(=O)CC[C@]4(C)[C@H]3CC[C@]12C |  | item: testosterone | human, plasma | oral, 237 mg |  | t1/2 | 16.2 h and 7.8 h and 4.5 h
COC[C@@H](NC(C)=O)C(=O)NCc1ccccc1 |  | fluorescence quenching | human healthy male, plasma | oral, 100 mg single |  | t1/2 | 12 h
O=C(/C=C/c1ccc(O)c(O)c1)O[C@@H]1C[C@](O)(C(=O)O)C[C@@H](O)[C@H]1O | human coronavirus OC43 | virus-induced cell killing | MRC-5 | screen |  | maximum inhibition | 12.7%
COc1ccc2c(c1)[C@]13CCCC[C@@H]1[C@H](C2)N(C)CC3 |  |  | human female | dose not given, day 22 | baseline: day 0 | T1/2 change | -19.9%
S=c1nc[nH]c2nc[nH]c12 | human coronavirus OC43 | virus-induced cell killing | MRC-5 | screen |  | maximum inhibition | 5.14%
Cc1ncc2n1-c1ccc(Cl)cc1C(c1ccccc1F)=NC2 |  |  | human, plasma | oral, 2 mg, day 1 |  | t1/2 | 4.4 h
COc1ccc(C[C@@H]2NC(=O)[C@H]([C@@H](C)O)NC(=O)[C@@H]3[C@@H]4CCN3C(=O)[C@@H]3Cc5cn(c6ccc(F)cc56)CCCCCCN(Cc5ccc(cc5)CCNC(=O)[C@]5(C)CCCN5C2=O)C(=O)CCC(=O)N[C@@H](C)C(=O)N[C@H](CNC(=O)CCCCC[N+](C)(C)C)C(=O)N[C@@H](Cc2cccc(c2)CNC(=O)CO4)C(=O)N3)cc1 |  |  | human, plasma | oral, 100 mg, together with: sodium caprate 1800 mg |  | t1/2 | 56.8 h
O=C(O)C(F)(F)C(F)(F)C(F)(F)C(F)(F)C(F)(F)C(F)(F)C(F)(F)F |  | two-compartment model | human, plasma | oral, 50 mg single dose, geometric mean |  | t1/2 | 2770 h
CCOC(=O)C1=C[C@@H](OC(CC)CC)[C@H](NC(C)=O)[C@@H](N)C1 |  |  | human, both sexes, plasma | oral, 150 mg, geometric mean, together with: alcohol |  | t1/2 | 3.4 h
